{"data": "Measured values gathered from unrelated publications", "note": "Lines come from different studies, so protocols differ. Numbers after ± are the reported error."}
{"SMILES": "Cc1ncc2n1-c1ccc(Cl)cc1C(c1ccccc1F)=NC2", "system": "wild-type mice, plasma", "conditions": "intravenous, 0.3 mg/kg, together with: 3-day vehicle", "measurement": "AUC(0-inf)", "value": "2290 ± 104 nmol·min/L"}
{"SMILES": "COc1cc2c(Oc3ccc4[nH]c(C)cc4c3F)ccnc2cc1OCC1(N)CC1", "system": "paediatric refractory sarcoma patients", "conditions": "8 mg", "measurement": "influenza-like illness incidence", "value": "0%"}
{"SMILES": "O=C1c2c(O)c(=O)ccn2N([C@@H]2c3ccccc3SCc3c2ccc(F)c3F)[C@@H]2COCCN12", "system": "BALB/c mice, plasma", "conditions": "oral, 1.5 mg/kg baloxavir marboxil, 8 h", "measurement": "plasma concentration", "value": "3.35 ng/mL"}
{"SMILES": "C[C@H]1CN(C(=O)CC#N)[C@]12CCN(c1ncnc3[nH]ccc13)C2", "system": "human", "conditions": "oral, 12 mg single dose", "measurement": "participants with influenza-like illness", "value": "0%"}
{"SMILES": "CCCCCCCCCCC(=O)O[C@H]1CC[C@H]2[C@H]3[C@H]([C@@H](C)C[C@]12C)[C@H]1CCC(=O)C=C1C[C@H]3C", "system": "human serum", "conditions": "300 ng/mL, NaF 50.0 mg/mL", "measurement": "DMA level", "value": "not detected"}
{"SMILES": "CCCCCn1cc(C(=O)Nc2cccc3ccccc23)c2ccccc21", "system": "rat liver microsomes", "conditions": "scaled to whole liver", "measurement": "scaled intrinsic clearance", "value": "564 mL/min/kg"}
{"SMILES": "CN/C(=N\\[N+](=O)[O-])NCc1cnc(Cl)s1", "system": "soil", "conditions": "0 days, nominal 0.37", "measurement": "concentration", "value": "0.24 mg/kg dry soil"}
{"SMILES": "C#Cc1ccc2c(c1)C(c1ccccn1)=NCc1c(-c3cnco3)ncn1-2.Cl", "assay": "shake flask", "system": "50 mM phosphate buffer", "conditions": "24 h, pH 5, 25 °C", "measurement": "solubility", "value": "3300 µg/mL"}
{"SMILES": "CCN(CC)C(=O)[C@@H]1C=C2c3cccc4[nH]cc(c34)C[C@H]2N(C)C1", "assay": "item: hot flashes", "system": "healthy volunteers", "conditions": "dose not given, 0 to 12 h", "how to read": "baseline: placebo, direction not given", "measurement": "List of Complaints score", "value": 2}
{"SMILES": "COc1cccc(C2(O)CCCCC2CN(C)C)c1 (stereo not shown)", "assay": "joint PK model", "system": "human, whole blood", "conditions": "oral, dose not given, one-compartment metabolite model", "measurement": "central volume", "value": "0.432 L"}
{"note": "Excerpt of the above:"}
{"SMILES": "COc1cccc(C2(O)CCCCC2CN(C)C)c1 (stereo not shown)", "assay": "joint PK model", "system": "human, whole blood", "conditions": "oral, dose not given, one-compartment metabolite model", "measurement": "central volume", "value": "0.432 L"}
